Measured values pooled from the literature.
A part holds a random share of what one study measured.

Block 1
Target: Sal-like protein 4, full length isoform B (SALL4, Homo sapiens, UniProt Q9UJQ4-2, residues 1-616)
Method: universal PBM
Molecule type: double-stranded DNA, one strand shown
Medium: in vitro
Tested at: not given
Notes: 8-mer, flanks averaged, mean of replicates
Direction: higher = stronger binding
Target sequence (chain): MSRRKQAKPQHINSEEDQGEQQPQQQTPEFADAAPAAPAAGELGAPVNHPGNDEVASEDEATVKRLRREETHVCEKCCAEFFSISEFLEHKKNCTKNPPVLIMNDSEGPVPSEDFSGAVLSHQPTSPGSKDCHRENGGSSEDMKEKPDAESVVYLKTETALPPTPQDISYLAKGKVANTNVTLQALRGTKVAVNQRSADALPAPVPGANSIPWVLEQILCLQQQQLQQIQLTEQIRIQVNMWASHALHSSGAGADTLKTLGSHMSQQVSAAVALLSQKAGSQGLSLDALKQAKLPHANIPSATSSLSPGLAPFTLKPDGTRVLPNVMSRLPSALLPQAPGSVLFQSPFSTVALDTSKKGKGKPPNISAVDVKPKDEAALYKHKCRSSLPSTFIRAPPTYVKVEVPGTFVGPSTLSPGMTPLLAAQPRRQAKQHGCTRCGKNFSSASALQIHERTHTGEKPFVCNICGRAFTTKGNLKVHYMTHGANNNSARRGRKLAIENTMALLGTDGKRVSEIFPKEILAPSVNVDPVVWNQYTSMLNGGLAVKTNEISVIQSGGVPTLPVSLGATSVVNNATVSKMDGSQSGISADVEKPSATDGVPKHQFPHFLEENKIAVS
With `CCAATGAA` the E-score was -0.118.
With `TCCTACAA` the E-score was 0.151.
`GGGCCTGA` gave an E-score of -0.253.
The E-score of `CTCCAATC` is reported as -0.214.

Block 2
Target: Histone acetyltransferase KAT6A, winged helix 2, GST fusion (KAT6A, Homo sapiens, UniProt Q92794, residues 85-181)
Method: protein binding microarray
Molecule type: double-stranded DNA, one strand shown
Medium: in vitro
Tested at: not given
Notes: 8-mer, flanks averaged, mean of 2 arrays, mostly near background
Baseline: not given
Direction: higher = stronger binding
Construct (chain): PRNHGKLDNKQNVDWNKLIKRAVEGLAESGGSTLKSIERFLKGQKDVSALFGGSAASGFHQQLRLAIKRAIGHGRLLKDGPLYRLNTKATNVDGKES
`CGGGTAAA` has an E-score of 0.0763.
With `ACCCTGTG` the E-score was 0.0181.
The E-score of `AGGTCTCG` is reported as 0.0619.

Single results of other studies
UNK zinc fingers 1-6, GST-SBP tag: RING finger protein unkempt homolog, zinc fingers 1-6, GST-SBP tag (UNK, Homo sapiens, UniProt Q9C0B0, residues 30-357)
Chain of UniProt Q9C0B0 (30-357, looked up): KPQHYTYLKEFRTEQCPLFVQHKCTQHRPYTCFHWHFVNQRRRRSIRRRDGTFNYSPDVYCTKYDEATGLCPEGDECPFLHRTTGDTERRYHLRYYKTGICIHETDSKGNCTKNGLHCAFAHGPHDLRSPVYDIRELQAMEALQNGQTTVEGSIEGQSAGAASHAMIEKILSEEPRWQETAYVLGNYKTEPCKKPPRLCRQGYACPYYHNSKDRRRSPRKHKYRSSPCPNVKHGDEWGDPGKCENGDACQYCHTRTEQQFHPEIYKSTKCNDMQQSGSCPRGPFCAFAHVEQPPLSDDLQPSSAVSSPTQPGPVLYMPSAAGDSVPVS
For `GGGAGUUCUACAGUCCGACGAUCGGACCUCCUGAACUUCUGGCUUUUAAGUGUGGUUGUUUUAGAUCCUGGUGUUAUUUUCCUUAUAAUUUUCCCUCGUUUCCCGUCUUCUCCUCCCCUCUUCUCAAGAUUUGACUCAUGGAUCAACAGAGGAUUGAGCAUCA`, the bound/input enrichment was 1.32 ratio (RING finger protein unkempt homolog, zinc fingers 1-6, SBP tag (UNK, Homo sapiens, UniProt Q9C0B0, residues 30-357); RNA Bind-n-Seq; RNA, in vitro; 100 nM, RNA with constant flanks, vertebrate orthologous sites, ends assumed; baseline: input RNA pool, higher = stronger binding).
`PhoQ, residues 284 288 289 292 302 303 TTCLQL` gave a fold induction of 0.723 (PhoP, residues 12 14 15 18 19 NQAHL (Escherichia coli, UniProt P23836); Sort-seq, refers to: YFP reporter; E. coli; PhoQ-PhoP variant library, with: 10 µM Mg2+; baseline: high Mg2+ state, higher = stronger signaling).
`GGGAGUUCUACAGUCCGACGAUCAGUUCCAAACCACCAUCAGAAAUGAAGAUGAGAUUACCCAGACGAGCCAAAACAGCUGCGCUACAGAAAAGUAAACUUAACCUUGCAGAGUUCCUUAAUGAAGAUACAAGUUAAGAGAGCCAACAGAGGAUUGAGCAUCA` gave a bound/input enrichment of 0.408 ratio (UNK zinc fingers 1-6, GST-SBP tag; RNA Bind-n-Seq; RNA, in vitro; not given, RNA with constant flanks, human-mouse chimeric sites, ends assumed; baseline: input RNA pool, higher = stronger binding).
With `GGGAGUUCUACAGUCCGACGAUCGCUCUUGGGAAUGUAAUAAGUGCCUUGGGGGACAAGAGCAAGAGAGCCACCCAUGUCCCUUACAGAGACUCUAAGCUGACAAGACUCUUGCAGGAUUCCCUCGGGGGUAACAGCCAAACCCAACAGAGGAUUGAGCAUCA` the bound/input enrichment was 0.155 ratio (UNK zinc fingers 1-6, GST-SBP tag; RNA Bind-n-Seq; RNA, in vitro; not given, RNA with constant flanks, human-mouse chimeric sites, ends assumed; baseline: input RNA pool, higher = stronger binding).
`GGGAGUUCUACAGUCCGACGAUCUGUAACUUAUCUGUAAAAGGUUCCCCCCCCUACUGUCCAAAAAAUAUGCAUGUAUAGUAAUUAGGACUUCAUUCCUCCAUGUUUUCUUCCCUUAUCUUACUGUCAUUGUCCUAAAACCUUCAACAGAGGAUUGAGCAUCA` gave a bound/input enrichment of 1.12 ratio (UNK zinc fingers 1-6, GST-SBP tag; RNA Bind-n-Seq; RNA, in vitro; not given, RNA with constant flanks, human-mouse chimeric sites, ends assumed; baseline: input RNA pool, higher = stronger binding).

Repeated from above (single results of other studies):
For `GGGAGUUCUACAGUCCGACGAUCGGACCUCCUGAACUUCUGGCUUUUAAGUGUGGUUGUUUUAGAUCCUGGUGUUAUUUUCCUUAUAAUUUUCCCUCGUUUCCCGUCUUCUCCUCCCCUCUUCUCAAGAUUUGACUCAUGGAUCAACAGAGGAUUGAGCAUCA`, the bound/input enrichment was 1.32 ratio (RING finger protein unkempt homolog, zinc fingers 1-6, SBP tag (UNK, Homo sapiens, UniProt Q9C0B0, residues 30-357); RNA Bind-n-Seq; RNA, in vitro; 100 nM, RNA with constant flanks, vertebrate orthologous sites, ends assumed; baseline: input RNA pool, higher = stronger binding).
With `GGGAGUUCUACAGUCCGACGAUCGCUCUUGGGAAUGUAAUAAGUGCCUUGGGGGACAAGAGCAAGAGAGCCACCCAUGUCCCUUACAGAGACUCUAAGCUGACAAGACUCUUGCAGGAUUCCCUCGGGGGUAACAGCCAAACCCAACAGAGGAUUGAGCAUCA` the bound/input enrichment was 0.155 ratio (UNK zinc fingers 1-6, GST-SBP tag; RNA Bind-n-Seq; RNA, in vitro; not given, RNA with constant flanks, human-mouse chimeric sites, ends assumed; baseline: input RNA pool, higher = stronger binding).
